Experimental data collected from several papers.
Compare with care: the assays were run in different laboratories.

`Cc1nn(-c2ccc(Cl)cc2)c2c1C(c1c(Cl)cccc1Cl)C(C#N)=C(N)O2` (stereo not shown): “viral titre log reduction” 0.269 log10 (SARS-CoV-2; Vero C1008; 10 µM; baseline: positive control).
`Cc1ccccc1NC(=N)Nc1ccccc1C` gave an IC50 of greater than 10 µM (SARS-CoV-2; viral replication; A549 expressing ACE2; inactive set pIC50 4).
The inhibition of `CC(C)(C)[C@H](NC(=O)C(F)(F)F)C(=O)N1C[C@H]2[C@@H]([C@H]1C(=O)N[C@H](C#N)C[C@@H]1CCNC1=O)C2(C)C` is reported as 1.45% (SARS-CoV-2; viral replication; Vero E6; 0.0005 µM).
`Cc1nn(-c2ccc(Cl)cc2)c2c1C(c1ccc(I)cc1)C(C#N)=C(N)O2` (stereo not shown) — result for “viral titre log reduction”: 0.378 log10 (SARS-CoV-2; Vero C1008; 10 µM; baseline: positive control).
With `CCCCc1nc(C)n(Cc2sccc2C(=O)OC)c(=O)c1Cc1ccc(-c2ccccc2-c2nnn[nH]2)cc1` the inhibition was 66.5% (SARS-CoV-2; viral replication; Vero E6, USA-WA1/2020; 2.5 µM).
For `O=C(O)CCc1nc(-c2ccccc2)c(-c2ccccc2)o1`, the EC50 was greater than 50.1 µM (SARS-CoV-2; viral replication, high-content imaging screen; cell-based).
For `CCCCSCCCNC(=O)C1CCN(Cc2nc(-c3ccc(CC)cc3)oc2C)CC1`, the AC50 was 14.1 µM (SARS-CoV-2; cytopathic effect; USA_WA1/2020).
`Cc1noc2c1-c1ccccc1C(c1ccc(Cl)cc1)=N[C@H]2CC(N)=O` — result for “viral replication inhibition”: “inactive” (SARS-CoV-2; concentration not given, Paris laboratory).
`CCN(CC)CCNC(=O)c1cc(-c2ccc(Br)s2)nc2ccccc12` gave a maximum response of -0.296% (SARS-CoV-2; cytopathic effect; USA_WA1/2020; retest, 8-point, duplicates).
For `CC(=O)N1CCN([C@H]2CCN(C(=O)N(C)[C@H](C)c3cc(C(F)(F)F)cc(C(F)(F)F)c3)[C@@H](c3ccc(F)cc3C)C2)CC1`, the EC50 was greater than 25.1 µM (SARS-CoV-2; viral replication, GFP plate reader screen; cell-based).
For `CN(C)CC[C@@H](c1ccc(Cl)cc1)c1ccccn1`, the IC50 was greater than 10 µM (SARS-CoV-2; viral replication; Vero E6; inactive set pIC50 4).
The EC50 of `CC(=O)O[C@H]1CC[C@@]2(C)C(=CC[C@@H]3[C@@H]2CC[C@]2(C)C(c4cccnc4)=CC[C@@H]32)C1` is reported as greater than 25.1 µM (SARS-CoV-2; viral replication, high-content imaging screen; cell-based).
For `CN(C)CCOC(c1ccc(Cl)cc1)c1ccccn1` (stereo not shown), the IC50 was greater than 2 µM (SARS-CoV-2; viral replication; Huh-7).
For `CCC(CC)COC(=O)[C@H](C)N[P@](=O)(OC[C@H]1O[C@@](C#N)(c2ccc3c(N)ncnn23)[C@H](O)[C@@H]1O)Oc1ccccc1`, the Ct value was 26.1 cycles (SARS-CoV-2; RT-qPCR, item: viral RNA; Vero; 1 µM; higher means less virus).
For `Clc1ccc(C(OCCN2CCCCC2)c2ccccc2)cc1` (stereo not shown), “viral replication inhibition” read “inactive” (SARS-CoV-2; concentration not given, Paris laboratory).
For `COc1cc2c(cc1OCC1CC1)NC(=O)C21CCN(c2cc(NC3CC3)ncn2)CC1`, the efficacy was 73% (SARS-CoV-2; cytopathic effect; USA_WA1/2020; retest, 8-point, duplicates).
`COc1ccc2[nH]c(C(O)c3ccc(Cl)cc3)c(CCNC(C)=O)c2c1` (stereo not shown): viral replication “no effect” (SARS-CoV-2; FISH-Flow dsRNA; Vero E6; 10 µM).
`COc1ccc(CCN(C)CCCC(C#N)(c2ccc(OC)c(OC)c2)C(C)C)cc1OC` (stereo not shown) — result for “viral replication inhibition”: “inactive” (SARS-CoV-2; concentration not given, Paris laboratory).
`CC1CCN(CCCC(=O)c2ccc(F)cc2)CC1` gave an IC50 of greater than 10 µM (SARS-CoV-2; viral replication; Vero E6; inactive set pIC50 4).
`COc1ccc2c(c1)c(CC(=O)O)c(C)n2C(=O)c1ccc(Cl)cc1`: “viral replication inhibition” “inactive” (SARS-CoV-2; concentration not given, Paris laboratory).
For `CCC1CCCCN1CCCNC(=O)c1sc2nc(C)cc(C)c2c1-n1cccc1` (stereo not shown), the maximum response was 90.5% (SARS-CoV-2; cytopathic effect; USA_WA1/2020; round 1, 5-point).
Under “patients with TEAE”, `Cn1cnc(Cn2c(=O)[nH]/c(=N\c3cc4cn(C)nc4cc3Cl)n(Cc3cc(F)c(F)cc3F)c2=O)n1` is recorded as 6.3% (human, moderate severity, any TEAE; oral, 375 mg).
`CNCCN(C)c1nc(NC(C)c2ccccc2)c2ccccc2n1` (stereo not shown) gave an AC50 of 10 µM (SARS-CoV-2; cytopathic effect, cell-based CPE; USA_WA1/2020; round 2, 5-point dilution).
`CNS(=O)(=O)CCc1ccc2[nH]cc(C3CCN(C)CC3)c2c1` gave an IC50 of greater than 2 µM (SARS-CoV-2; viral replication; Huh-7).
For `O=C(O[C@@H]1Cc2c(O)cc(O)cc2O[C@@H]1c1cc(O)c(O)c(O)c1)c1cc(O)c(O)c(O)c1`, the CPE inhibition was 90% (SARS-CoV-2; viral replication; Vero E6; 50 µM; baseline: mean of replicates).
The IC50 of `CC(C)(C)[C@]1(O)CCN2C[C@@H]3c4ccccc4CCc4cccc(c43)[C@H]2C1` is reported as greater than 10 µM (SARS-CoV-2; viral replication; A549 expressing ACE2; inactive set pIC50 4).
For `CC[C@H](C)[C@H](NC(=O)[C@H](CC(C)C)NC(=O)[C@H](Cc1c[nH]c2ccccc12)NC(=O)[C@H](CCC(N)=O)NC(=O)[C@@H](NC(=O)[C@H](Cc1ccccc1)NC(=O)[C@H](C)NC(=O)[C@H](CCCCNC(=O)COCCOCCNC(=O)COCCOCCNC(=O)CC[C@H](NC(=O)CCCCCCCCCCCCCCCCCCC(=O)O)C(=O)O)NC(=O)[C@H](CCC(N)=O)NC(=O)[C@H](C)NC(=O)[C@@H](NC(=O)[C@H](CCCCN)NC(=O)[C@H](CC(=O)O)NC(=O)[C@H](CC(C)C)NC(=O)C(C)(C)NC(=O)[C@@H](NC(=O)[C@H](CO)NC(=O)[C@H](Cc1ccc(O)cc1)NC(=O)[C@H](CC(=O)O)NC(=O)[C@H](CO)NC(=O)[C@@H](NC(=O)[C@H](Cc1ccccc1)NC(=O)[C@@H](NC(=O)CNC(=O)[C@H](CCC(=O)O)NC(=O)C(C)(C)NC(=O)[C@@H](N)Cc1ccc(O)cc1)[C@@H](C)O)[C@@H](C)O)[C@@H](C)CC)[C@@H](C)CC)C(C)C)C(=O)N[C@@H](C)C(=O)NCC(=O)NCC(=O)N1CCC[C@H]1C(=O)N[C@@H](CO)C(=O)N[C@@H](CO)C(=O)NCC(=O)N[C@@H](C)C(=O)N1CCC[C@H]1C(=O)N1CCC[C@H]1C(=O)N1CCC[C@H]1C(=O)N[C@@H](CO)C(N)=O`, the severe hypoglycaemia was 0% (healthy human; 2.5 mg, single ascending dose).
`O=C(/C=C/c1ccc(O)c(O)c1/C=C/c1ccc(O)c(O)c1)O[C@H](Cc1ccc(O)c(O)c1)C(=O)O` gave a CPE inhibition of 0% (SARS-CoV-2; viral replication; Vero E6; 6.25 µM; baseline: mean of replicates).
With `Cc1ccccc1N1CCN(C2CCc3ccccc3C2)CC1` (stereo not shown) the inhibition was 42.8% (SARS-CoV-2; viral replication; Vero E6, USA-WA1/2020; 2.5 µM).
`CC(C)=CCc1c(O)ccc(C(=O)/C=C/c2ccc(O)cc2)c1O` gave a CPE inhibition of 25% (SARS-CoV-2; viral replication; Vero E6; 50 µM; baseline: mean of replicates).
The inhibition of `Nc1ncnc2c([C@@H]3N[C@H](CO)[C@@H](O)[C@H]3O)c[nH]c12` is reported as 37% (Marburg virus; viral RNA in cell lysate; HeLa, Musoke; 1.6 µM, 1 h).
`CCCCCCCC(=O)N[C@H](CN1CCCC1)[C@H](O)c1ccc2c(c1)OCCO2` gave an IC50 of greater than 2 µM (SARS-CoV-2; viral replication; Huh-7).
With `COc1ccc2c(Sc3ccc(Cl)cc3)c(C(=O)NCCCN3CCCCC3)[nH]c2c1` the AC50 was 12.6 µM (SARS-CoV-2; cytopathic effect, cell-based CPE; USA_WA1/2020; round 2, 5-point dilution).
`CC(=O)NC1(c2ccccc2)CCN(CC[C@H](CN(C)C(=O)c2ccccc2)c2ccc(Cl)c(Cl)c2)CC1` has an EC50 of greater than 100 µM (SARS-CoV-2; viral replication, GFP plate reader screen; BetaCov/Belgium/GHB-03021/2020; cell-based).
`O=C(NCCN1CCCCC1)c1ccc(-c2ccc(N3CCSCC3)nc2)cc1` gave a maximum response of 52.7% (SARS-CoV-2; cytopathic effect; USA_WA1/2020; round 2, 5-point).
`N#CC(=Cc1ccc(O)c(O)c1)C(=O)c1ccc(O)c(O)c1` has an inhibition of 55.2% (SARS-CoV-2; viral replication; Vero C1008, USA-WA1/2020; 2.5 µM, reconfirmation).
With `N#Cc1ccc2c(c1)N(CCCN1CCC(O)CC1)c1ccccc1S2` the EC50 was greater than 20 µM (SARS-CoV-2; viral replication, GFP plate reader screen; cell-based).
`COc1cccc(-c2ccc(CN3CCCC(c4nc5ccc(C)cc5c(=O)[nH]4)C3)cc2)c1` (stereo not shown) gave an efficacy of 45.4% (SARS-CoV-2; cytopathic effect; USA_WA1/2020; retest, 8-point, duplicates).
`CN1CCC(c2cc3cc(Cl)ccc3o2)CC1` has an EC50 of 17.2 µM (SARS-CoV-2; viral replication, GFP plate reader screen; BetaCov/Belgium/GHB-03021/2020; cell-based).
With `COc1ccc2[nH]c([S+]([O-])Cc3ncc(C)c(OC)c3C)nc2c1` (stereo not shown) the IC50 was greater than 2 µM (SARS-CoV-2; viral replication; Huh-7).
`COc1cc(/C=C/C(=O)N2CCC=CC2=O)cc(OC)c1OC` has an EC50 of greater than 50.1 µM (SARS-CoV-2; viral replication, GFP plate reader screen; BetaCov/Belgium/GHB-03021/2020; cell-based).
`COc1cc(C2C(C#N)=C(N)Oc3c2c(C)nn3-c2ccc(Cl)cc2)cc(OC)c1OC` (stereo not shown) gave a viral reduction of 2.41% (SARS-CoV-2; viral replication; Vero; 1 µM).
`COc1ccc(C[C@@H]2c3cc(Oc4cc(C[C@@H]5c6cc(O)c(OC)cc6CCN5C)ccc4O)c(OC)cc3CCN2C)cc1` gave a CPE inhibition of 0% (SARS-CoV-2; viral replication; Vero E6; 25 µM).
The EC50 of `Cc1cc(C)c2nc(-c3cnc(NCCCC4CCN(C)CC4)nc3C)[nH]c2c1` is reported as greater than 50.1 µM (SARS-CoV-2; viral replication, high-content imaging screen; cell-based).
With `CCC(CC)COC(=O)[C@H](C)N[P@](=O)(OC[C@H]1O[C@@](C#N)(c2ccc3c(N)ncnn23)[C@H](O)[C@@H]1O)Oc1ccccc1` the remaining activity was 0.472% (SARS-CoV-2; replicon RdRp activity; HeLa; 10 µM).
With `Cc1nn(-c2ccc(Cl)cc2)c2c1C(c1ccc(-c3ccccc3)cc1)C(C#N)=C(N)O2` (stereo not shown) the viral titre was 941000 IU/mL (SARS-CoV-2; Vero; 1 µM).

A few entries again:
For `CCC1CCCCN1CCCNC(=O)c1sc2nc(C)cc(C)c2c1-n1cccc1` (stereo not shown), the maximum response was 90.5% (SARS-CoV-2; cytopathic effect; USA_WA1/2020; round 1, 5-point).
Under “patients with TEAE”, `Cn1cnc(Cn2c(=O)[nH]/c(=N\c3cc4cn(C)nc4cc3Cl)n(Cc3cc(F)c(F)cc3F)c2=O)n1` is recorded as 6.3% (human, moderate severity, any TEAE; oral, 375 mg).
`CNCCN(C)c1nc(NC(C)c2ccccc2)c2ccccc2n1` (stereo not shown) gave an AC50 of 10 µM (SARS-CoV-2; cytopathic effect, cell-based CPE; USA_WA1/2020; round 2, 5-point dilution).
